# Measured values from different studies.
# Compare with care: the assays were run in different laboratories.
Structure (SMILES),test system,conditions,AUCtau
Cc1noc(C)c1-c1cc(C(O)(c2ccccn2)c2ccccn2)c2nc(C3CC3)[nH]c2c1,"human, plasma","oral, 3 mg, cycle 1 day 8, monotherapy",4390 ng·h/mL
CCCCCCCOc1ccc(CCC(N)(CO)CO)cc1C(F)(F)F.Cl,"healthy male humans, plasma","0.125 mg, day 21, mean",17.5 ng·h/mL
COc1ccc(F)cc1C(=O)NCc1ccc(-c2nn([C@@H](C)C(F)(F)F)c(N)c2C(N)=O)cc1,"human, plasma","oral, 200 mg once daily, added: oral repaglinide",105000 ng·h/mL
Fc1ccc([C@@H]2CCNC[C@H]2COc2ccc3c(c2)OCO3)cc1,"human, all CYP2D6 genotypes","oral, 20 mg, steady state, dosing interval 24 h, geometric mean",511 ng·h/mL
C[C@H]1Oc2cc(cnc2N)-c2c(nn(C)c2C#N)CN(C)C(=O)c2ccc(F)cc21,"human patients, plasma","oral, dose not given, cycle 2 day 1, geometric mean, added: avelumab",5810 ng·h/mL
C=CC(=O)Nc1cc(Nc2nccc(Nc3cc(Cl)c(F)cc3C(C)(C)O)n2)c(OC)cc1N1CC[C@@H](N(C)C)C1,"human patients, plasma","oral, 300 mg daily, cycle 2 day 1, geometric mean",9130 ng·h/mL
C[C@@H](Oc1cc(-c2cnn(C3CCNCC3)c2)cnc1N)c1c(Cl)ccc(F)c1Cl,"human patients, plasma","oral, dose not given, cycle 2 day 1, mean, added: avelumab",3300 ng·h/mL
Cc1cc(-c2nccc3c2ccn3CC(=O)Nc2ccc(-c3cnccn3)cn2)ccn1,"human, plasma","oral, 5 mg once daily, day 1, geometric mean",0.333 µM·h

# Excerpt of the above:
Structure (SMILES),test system,conditions,AUCtau
Cc1cc(-c2nccc3c2ccn3CC(=O)Nc2ccc(-c3cnccn3)cn2)ccn1,"human, plasma","oral, 5 mg once daily, day 1, geometric mean",0.333 µM·h
